# Results from different studies.
# Every numbered part comes from another study and shows a few of its results, in no order.
# Chain of UniProt P28223 (whole entry, looked up): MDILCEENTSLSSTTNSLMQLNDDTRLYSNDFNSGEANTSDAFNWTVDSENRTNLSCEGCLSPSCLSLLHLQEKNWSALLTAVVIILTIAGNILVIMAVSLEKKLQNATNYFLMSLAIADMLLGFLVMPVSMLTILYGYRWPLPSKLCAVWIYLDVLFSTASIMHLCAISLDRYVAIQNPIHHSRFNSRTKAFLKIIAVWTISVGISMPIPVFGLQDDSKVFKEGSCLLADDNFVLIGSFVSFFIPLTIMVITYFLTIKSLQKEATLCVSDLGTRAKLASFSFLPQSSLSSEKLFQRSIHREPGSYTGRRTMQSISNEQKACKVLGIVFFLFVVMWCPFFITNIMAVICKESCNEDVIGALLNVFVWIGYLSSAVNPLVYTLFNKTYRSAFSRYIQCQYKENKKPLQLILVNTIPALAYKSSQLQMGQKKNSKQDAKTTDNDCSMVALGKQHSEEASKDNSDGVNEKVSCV

# Study 1 — concentration: 50 µM
# Target: Bromodomain-containing protein 4, BD1 (BRD4, Homo sapiens, UniProt O60885)
Structure (SMILES),inhibition [%]
Cc1c(CN2CCN(C(=O)[C@H](C)O)CC2)sc2c(N3CCOCC3)nc(-c3cnc(N)nc3)nc12,8.1
O=C(NC[C@H](O)CO)c1ccncc1Nc1ccc(I)cc1F,0
Nc1nc(OCc2ccccc2)c2nc[nH]c2n1,31.9
COc1ccnc(C[S+]([O-])c2nc3ccc(OC(F)F)cc3[nH]2)c1OC (stereo not drawn),7.3
CN(C)S(=O)(=O)c1ccc2c(c1)/C(=C/c1cc3c([nH]1)CCCC3)C(=O)N2,61
CCn1c(C(=O)N(C2CC2)C2CC2)cc2c3c(ncn3C)c(Nc3cc(C)n(C)n3)nc21,-1.8
Cn1c(Nc2ccc(C(F)(F)F)cc2)nc2cc(Oc3ccnc(-c4ncc(C(F)(F)F)[nH]4)c3)ccc21,37.9
Oc1cccc(-c2nc(N3CCOCC3)c3oc4ncccc4c3n2)c1,1.75

# Study 2 — organism: Sarcocystis neurona; effect on: parasite activity; concentration: 10 µM; time: 96 h
SMILES,activity class
CCCNCC(O)COc1ccccc1C(=O)CCc1ccccc1 (stereo not drawn),inactive
CC[N+](C)(C)c1cccc(O)c1,inactive
CO[C@@]1(NC(=O)Cc2cccs2)C(=O)N2C(C(=O)O)=C(COC(N)=O)CS[C@@H]21,inactive
CCC(C)(C)C(=O)O[C@H]1C[C@@H](C)C=C2C=C[C@H](C)[C@H](CC[C@@H]3C[C@@H](O)CC(=O)O3)[C@H]21,inactive
CCCCCCCCCCC[C@@H](C[C@@H]1OC(=O)[C@H]1CCCCCC)OC(=O)[C@H](CC(C)C)NC=O,inactive
CC[C@]1(O)C[C@H]2CN(CCc3c([nH]c4ccccc34)[C@@](C(=O)OC)(c3cc4c(cc3OC)N(C=O)[C@H]3[C@@](O)(C(=O)OC)[C@H](OC(C)=O)[C@]5(CC)C=CCN6CC[C@]43[C@@H]65)C2)C1,inactive
CC(=O)[C@]1(O)Cc2c(O)c3c(c(O)c2[C@@H](O[C@H]2C[C@H](N)[C@H](O)[C@H](C)O2)C1)C(=O)c1ccccc1C3=O,inactive
O=C(O)c1cc(-c2ccc(F)cc2F)ccc1O,inactive

# Mixed results — concentration: 10 µM
SMILES,target or system,test,test system,setting,how to read,endpoint,value
CC[N+](CC)(CC)CCOc1cccc(OCC[N+](CC)(CC)CC)c1OCC[N+](CC)(CC)CC,Plasmodium berghei,,"Huh-7, liver stage",24 h,reference: control,parasite load,102%
O=C(Nc1ccc(-n2nc(-c3cccnc3)cc2C(F)(F)F)cn1)c1ccc(-c2ccccc2)c(F)c1,"HTR2A (Homo sapiens, UniProt P28223)","binding, radioligand binding",,,,inhibition,-1.62%

# Repeated from above (study 2):
SMILES,activity class
CCCCCCCCCCC[C@@H](C[C@@H]1OC(=O)[C@H]1CCCCCC)OC(=O)[C@H](CC(C)C)NC=O,inactive
CC[C@]1(O)C[C@H]2CN(CCc3c([nH]c4ccccc34)[C@@](C(=O)OC)(c3cc4c(cc3OC)N(C=O)[C@H]3[C@@](O)(C(=O)OC)[C@H](OC(C)=O)[C@]5(CC)C=CCN6CC[C@]43[C@@H]65)C2)C1,inactive
